# Results pooled from the literature.
# A part holds a random share of what one study measured. Positions count from the first letter of the parent shown.

# Sample 1
# Target: CCNE1, cyclin fold, Cln2 fusion (human)
# Technique: yeast growth competition, sequencing
# Medium: yeast
# Notes: weak parent motif
# Relative to: not given
# Reading: higher = stronger binding
# Starting sequence: SLBP docking peptide (human); ARYKRKLLINDFG
Substitution,normalised enrichment score
Y3V,0.708
N10E,0.936
F12A,0.139
K6Q,1.8
I9F,2.1
K6A,1.03
F12G,0.513
R2L,0.482
Y3N,-0.187
G13F,0.825
F12M,-0.214
A1G,0.832
N10A,0.291
D11K,1.11
L8W,1.46
A1W,0.421
L8I,0.371
L7H,-0.576
F12E,0.294
K6T,1.05
Y3C,0.148
I9P,0.69
L8T,0.087
K6N,1.68
I9W,0.484

# Sample 2
# Target: Interferon regulatory factor 5, full length, phosphomimetic (IRF5, Homo sapiens, UniProt Q13568-2, residues 1-514, S451D/S453D/S456D/S462D)
# Technique: protein-binding microarray
# Molecule type: double-stranded DNA, one strand shown
# Medium: in vitro
# Concentration: 940 nM top
# Notes: 60-bp whole probe
# Together with: salmon DNA 0.4 mg/ml
# Relative to: random background probes
# Reading: higher = stronger binding
# Shared flanks, not repeated: GCCTAGCAC … GTCTTGATTCGCTTGACGCTGCTG
Oligonucleotide,fitted relative affinity
GACGGTATCGGGCTCGGGACGTGCTAG,2.84 z-score
ACTCATTTTCATTTTGTGTCGTGCTAG,1.29 z-score
CGTACTGTATCTAGCCTTGCGTGCTAG,-0.215 z-score
GACGGTTTCGGGATCGGGACGTGCTAG,7.51 z-score
GACGGTTTCCTTTCCCTGAGGTGCTAG,1.32 z-score
GACGGTCTCCTTATCCTGCCGTGCTAG,0.507 z-score
TTAGGTTTCAGGACTGGGTTAGTGCTA,3.11 z-score
TCATATATATCATTTAAACTGTGCTAG,0.789 z-score
TTAGATTCCAGTTTTGATTAGTGCTAG,1.09 z-score
TCAACTCTCTGGGCTGTGACTGTGCTA,0.154 z-score
TTAGGACTGGCTCTCGGTTAGTGCTAG,1.43 z-score
TTATATATCAGTATCGATTAGTGCTAG,5.22 z-score
GGCGGTCTCCTTCTCCTGACGTGCTAG,0.143 z-score
GAAGGACTGGGGTATCGGGACGTGCTA,0.329 z-score
TCTTGTCTGGATGTGCCTTAGTGCTAG,0.42 z-score
CTCAAGATTCCTCTCACCTCGTGCTAG,0.539 z-score
TAGACCTAGAAAGAAACCACGTGCTAG,0.225 z-score
GACGGACTGGTGTATCGGGACGTGCTA,-0.0984 z-score
AGGCATGTGGGTTCCATCATGTGCTAG,-0.225 z-score
TTAGGACTGGGTTTCGGTTCGTGCTAG,6.03 z-score
GACGGACTGGGTCCCGGGACGTGCTAG,-0.663 z-score
GACGGGTTCGGGTATCGGGACGTGCTA,0.763 z-score
TTAGGTTTCCTGCTCCTTTAGTGCTAG,0.96 z-score
TTAGATCTCAGTATCAATTAGTGCTAG,1.04 z-score
GAAGATTTCAGTTTCGAGACGTGCTAG,4.24 z-score

# Sample 3
# Target: Protein C-ets-1 (ETS1, Homo sapiens, UniProt P14921, residues 1-441, full length assumed)
# Technique: protein-binding microarray
# Molecule type: double-stranded DNA, one strand shown
# Medium: in vitro
# Concentration: not given
# Notes: k-mer, scored over probes, only values ≥0.25
# Reading: higher = stronger binding
# Target sequence (chain): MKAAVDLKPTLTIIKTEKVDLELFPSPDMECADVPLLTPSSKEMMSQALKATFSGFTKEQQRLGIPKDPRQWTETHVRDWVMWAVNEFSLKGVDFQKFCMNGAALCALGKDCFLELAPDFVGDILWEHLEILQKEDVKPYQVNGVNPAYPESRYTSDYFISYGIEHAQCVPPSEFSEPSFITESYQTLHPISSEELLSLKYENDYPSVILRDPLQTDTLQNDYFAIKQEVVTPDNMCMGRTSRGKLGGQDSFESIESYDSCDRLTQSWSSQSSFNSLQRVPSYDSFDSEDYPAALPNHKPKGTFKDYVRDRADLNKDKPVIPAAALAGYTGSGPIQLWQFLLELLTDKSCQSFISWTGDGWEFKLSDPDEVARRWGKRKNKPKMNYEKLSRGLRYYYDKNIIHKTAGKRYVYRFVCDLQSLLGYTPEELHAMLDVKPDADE
Oligonucleotide,E-score
ACACTTCC,0.464
AATAGGAT,0.266
AACGGATA,0.428
AAGGGATG,0.337
AGATCCGG,0.434
ACCGGGAG,0.35
CGGTACCG,0.386
ATTTCCCA,0.26
CAATATCC,0.332
ACCCTCCC,0.278
ACTTCCGA,0.462
AGGATGTA,0.441
AGGAGGAT,0.279
ATCCGTCG,0.331

# Sample 4
# Target: Sal-like protein 4, full length isoform A (SALL4, Homo sapiens, UniProt Q9UJQ4, residues 1-1053)
# Chain of UniProt Q9UJQ4 (whole entry, looked up): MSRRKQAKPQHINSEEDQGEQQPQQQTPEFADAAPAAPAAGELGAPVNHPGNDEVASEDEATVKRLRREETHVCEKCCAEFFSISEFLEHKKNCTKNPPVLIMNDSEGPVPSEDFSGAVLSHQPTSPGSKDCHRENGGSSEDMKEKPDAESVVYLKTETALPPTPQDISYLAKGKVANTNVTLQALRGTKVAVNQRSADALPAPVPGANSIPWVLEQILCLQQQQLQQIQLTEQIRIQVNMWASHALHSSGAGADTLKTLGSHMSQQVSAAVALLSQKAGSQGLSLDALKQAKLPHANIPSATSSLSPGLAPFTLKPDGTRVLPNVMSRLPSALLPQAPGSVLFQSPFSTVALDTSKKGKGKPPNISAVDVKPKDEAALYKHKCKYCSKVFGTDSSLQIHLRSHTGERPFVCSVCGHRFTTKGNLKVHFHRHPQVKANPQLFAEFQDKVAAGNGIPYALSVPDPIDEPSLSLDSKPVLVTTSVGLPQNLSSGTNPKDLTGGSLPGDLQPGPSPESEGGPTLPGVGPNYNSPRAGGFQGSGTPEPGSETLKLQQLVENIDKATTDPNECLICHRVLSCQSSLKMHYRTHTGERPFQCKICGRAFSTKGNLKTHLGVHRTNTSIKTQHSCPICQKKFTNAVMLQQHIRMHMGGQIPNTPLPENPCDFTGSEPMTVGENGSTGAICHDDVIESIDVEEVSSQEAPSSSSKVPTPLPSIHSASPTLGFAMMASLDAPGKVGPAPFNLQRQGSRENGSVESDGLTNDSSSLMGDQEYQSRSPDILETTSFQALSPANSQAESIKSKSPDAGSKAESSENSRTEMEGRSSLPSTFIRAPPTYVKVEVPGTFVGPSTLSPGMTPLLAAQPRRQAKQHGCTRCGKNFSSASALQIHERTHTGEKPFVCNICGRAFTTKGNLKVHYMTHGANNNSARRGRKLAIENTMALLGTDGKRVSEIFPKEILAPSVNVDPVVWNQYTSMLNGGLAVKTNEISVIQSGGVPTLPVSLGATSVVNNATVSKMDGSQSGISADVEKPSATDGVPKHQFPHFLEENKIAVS
# Technique: universal PBM
# Molecule type: double-stranded DNA, one strand shown
# Medium: in vitro
# Concentration: 600 nM
# Notes: 8-mer, flanks averaged, mean of replicates
# Reading: higher = stronger binding
Oligonucleotide,E-score
GAAATGCC,-0.0285
TGAGCCAA,0.00718
AGCATGGG,-0.113
ACTTGCTA,0.00793
ACTGTCTC,-0.1
CGAGGAAG,-0.172
AATAAACT,0.384
CAATAACA,0.252
AGGCGACA,-0.301
CCGGTATA,-0.00196
GAATTCGC,-0.166
TCACTCCA,-0.0523
CCGTCCAC,-0.167
GCCAAACC,-0.176
CCTAGAAA,0.0761
ACTAGTAA,0.248
CACGTCTG,0.0106
CTGACCAG,-0.196

# Sample 5
# Target: RNA binding protein fox-1 homolog 2, RRM domain, GST-SBP tag (RBFOX2, Homo sapiens, UniProt O43251-10, residues 100-194)
# Technique: RNA Bind-n-Seq
# Molecule type: RNA
# Medium: in vitro
# Concentration: 365 nM
# Notes: natural RNA segment, single round, ends assumed
# Relative to: no-protein control
# Reading: higher = stronger binding
# Shared flanks, not repeated: GGGAGUUCUACAGUCCGACGAUC … UGGAAUUCUCGGGUGCCAA
# Construct (chain): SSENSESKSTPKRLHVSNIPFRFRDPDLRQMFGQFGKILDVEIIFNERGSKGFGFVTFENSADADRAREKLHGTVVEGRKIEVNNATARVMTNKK
Oligonucleotide,RBNS enrichment (R)
AGAAUGGUCAUAUUCACUUUGUGGGCUGCCCAUAAUCUUUCUUGGGCAUUCACAACUCUUGAGUUUGGUGUUCAGGCAUCAUUAUUAAAAAGUGGAGUCCUAUGUACCAG,0.201
GUUGGUGAUUCAACUUGGGCUCCAAGACUUGGGUAAGCUCUGGGCCUUCACAGAAUGAUGGCACCUUCCUAAACCCUCAUGGGUGGUGUCUGAGAGGCGUGAAGGGCCUG,0.421
GACUCUGCUGCCUCCAUGUCCUCUCUGGGACCUGACUCUCCACAGGGAGGGAGACUCCUUGUCCCAGACCUCAGUCCUGCUUCCAACUGCCUUCCUUGCCCUCACUGUUC,1.74
UAGACAGAGAGGGACGUGGGCAUGUUUUAUUUGGAGGGAUGUUUAUUCCCUGAGAUUACAGAAGUACCCAGAAGUGUCUGGGAUCCCUGUCACAUCUGUGUCAUGUUGUU,0.566
ACCUGCGGGGAAGAAACUCAGACUUUCUAUUUUUGAUAUUUUGUGCAUUAAUACAUUACAAACAUGAAGAUGUUUGUAAAGUUUUGUUUUAGUCAUUUUCUUUGCAGUCA,0.618
GCUCCCUCCUGACCACGGAGGCUCCACUGGUGGUGCCACAUGGGAAACAUCUACUUCUCAGUCUAAGGCACACUAAGUACUAGUAGCAAGCCUGUGAGCCUAGGAGACUG,0.435
GAAGCUAGGGCGCCUACCCCCCCACCCGGAGGACCCCUGCGGCCCCCUGCCUAGAGGAGCACCAUCUACAGUUGUGCCAUUCCCCAGCCACUGCCUUCAUGCUGCCCCCG,0.468
CCUUCUUCUCUCUCCUUUGGCGUUUGUUCCUGUAGUCACUGGGCUAAUCUCCCCCUAGCUUCAAGCUGUACAUAGGGCCUCCCAGUGCAAAUCCUCCUGCCCAUACCGUG,0.809
UUCUUAUGCUUUUUUGGGGGGGGGUGUCAAUUUUUAGUAUAUUAAGAGCUAAAAGAAGUAAAGGUUUCUUAGACUUUUUUUGGGAGGGAGGCGUCAAUUUUUAGUAUAUU,1.16
GCAAAUCUCUUUUUAAAAAACUCUUUGGUGCACAAGUAACACAUUUGGCCACAAAACACCAAAGAAUUGUAGGCAGUGGCCCCUAUUGAGAAGUUUUCCGGUAGAGUUGG,0.611
CGAUGCGUGUCUUUCCCACGCAGAGAAGCCCAGUCUCUUCUCUGGAUCUGGGCCUUUGAACAACUGGGGGGCGUUUUCUCCCCCCCAUUGGGACACCAGUCUUCGGUGUG,0.286
UACUACUGAGAAAGGAACUAGGUAGUUUGGUGAAUGAAAGAAAACAAAAUUUGAAGAUAUUAUGUAGUGGUCAAGGACCACUAAUAUUUGGGGAGUGUGUUUUGUCUGUU,1.28

# Repeated from above (sample 2):
Oligonucleotide,fitted relative affinity
TTATATATCAGTATCGATTAGTGCTAG,5.22 z-score
GGCGGTCTCCTTCTCCTGACGTGCTAG,0.143 z-score
GAAGGACTGGGGTATCGGGACGTGCTA,0.329 z-score
TCTTGTCTGGATGTGCCTTAGTGCTAG,0.42 z-score
CTCAAGATTCCTCTCACCTCGTGCTAG,0.539 z-score
TAGACCTAGAAAGAAACCACGTGCTAG,0.225 z-score
GACGGACTGGTGTATCGGGACGTGCTA,-0.0984 z-score
AGGCATGTGGGTTCCATCATGTGCTAG,-0.225 z-score
TTAGGACTGGGTTTCGGTTCGTGCTAG,6.03 z-score
